Results pooled from the literature.
Every numbered part comes from another study and shows a few of its results, in no order. Positions count from the first letter of the parent shown.

Study 1 — method: protein-binding microarray; molecule type: double-stranded DNA, one strand shown; sample: in vitro; tested at: 2540 nM top; notes: 60-bp whole probe; together with: salmon DNA 0.4 mg/ml; relative to: random background probes; direction: higher = stronger binding; quantity: fitted relative affinity; all sequences stand within: GCCTAGCAC … GTCTTGATTCGCTTGACGCTGCTG
Target: Interferon regulatory factor 3, full length, phosphomimetic (IRF3, Homo sapiens, UniProt Q14653, residues 1-427, S386D/S396D/S398D/S402D/T404D/S405D)
Chain of UniProt Q14653 (whole entry, unmodified, looked up): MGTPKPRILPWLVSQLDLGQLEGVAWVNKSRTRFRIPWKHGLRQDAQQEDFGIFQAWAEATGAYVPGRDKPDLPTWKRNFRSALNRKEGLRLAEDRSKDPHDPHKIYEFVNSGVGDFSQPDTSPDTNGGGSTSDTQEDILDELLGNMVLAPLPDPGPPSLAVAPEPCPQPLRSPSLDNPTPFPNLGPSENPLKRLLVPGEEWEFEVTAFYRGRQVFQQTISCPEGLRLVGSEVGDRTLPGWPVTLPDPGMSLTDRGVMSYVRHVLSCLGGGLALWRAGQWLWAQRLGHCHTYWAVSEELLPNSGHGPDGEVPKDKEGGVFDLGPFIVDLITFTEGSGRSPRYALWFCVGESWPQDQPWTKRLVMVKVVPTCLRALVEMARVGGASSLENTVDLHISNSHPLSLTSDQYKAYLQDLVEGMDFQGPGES
GACGGTTTTGGTCTCGGGACGTGCTAG: 3.09 z-score
TCATAGCTTCCTTTCGCACTGTGCTAG: 1.23 z-score
TTAGGTTTCCTTTTCCCTTAGTGCTAG: 11.9 z-score
GACGATATCAGTATCGGGACGTGCTAG: 1.87 z-score
GACGGACTGGGGACGGGGGACGTGCTA: -0.3 z-score
TCAACTGTGTGTTTGAGACTGTGCTAG: -0.549 z-score
GACGATCTCAGAGTGGAGACGTGCTAG: 0.0764 z-score
AACATACTCGTTTACATTTTGTGCTAG: 1.4 z-score
TCAGGTAGCCTTATCCCTAAGTGCTAG: 1.35 z-score
GCCAAACACCCACATTCACCGTGCTAG: 0.429 z-score
TTAGGTTTCCCTTTCCTTTAGTGCTAG: 10.1 z-score
GACGGTAGCCTTTTCCTGACGTGCTAG: 2.42 z-score
TCCTGTATGGATGTGTCTTAGTGCTAG: -0.181 z-score
GACGGTTCCGTTTTCCTGACGTGCTAG: 5.59 z-score
TAGTTTCTAAAACTCTTTATGTGCTAG: 2.17 z-score
GACGATATCGGCTTTCGAGACGTGCTA: 0.235 z-score

Study 2 — method: RNA Bind-n-Seq; molecule type: RNA; sample: in vitro; tested at: 365 nM; relative to: no-protein control; direction: higher = stronger binding; quantity: RBNS enrichment (R)
Target: RNA binding protein fox-1 homolog 2, RRM domain, GST-SBP tag (RBFOX2, Homo sapiens, UniProt O43251-10, residues 100-194)
Notes: natural RNA segment, single round, ends assumed
All sequences stand within: GGGAGUUCUACAGUCCGACGAUC … UGGAAUUCUCGGGUGCCAA
Construct (chain): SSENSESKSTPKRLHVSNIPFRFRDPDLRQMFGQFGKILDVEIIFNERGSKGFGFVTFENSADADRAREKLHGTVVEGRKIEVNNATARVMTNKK
AGCAAUCAAAUGAUUUAGUCUUGUAAUAAAAUUGCAUUUUAAUUAUCUUAGGUGCUUUUUUUUUCUUGGUAGCCUCAUCCAGGUCCUUGAAGGUCCUCAGAACAUCCUCC: 0.619
GUUUUGGAAAACUAUAAGAAAUGCUUUGUUAAUGUGUGUAUUCCUAUGUAAAACACAUGGCUUUUCCUGUGUAUAUUUUUAAAAAUUAAAGAAAUGCACAUUUAAAAAGU: 0.76
AUUUUCCAAGUAUUUCUCUUGAAACUGCCAGUGCCUGAACUGUUGGGGCCAGGAUUUUCCCUGGUCAGAUGCCAAGUAACAUGUGGUUUUCUGCCAUACUUUUCUCCAUU: 0.248
GUUCCACCUGGAUCCAGUUGCAAAGUUUGGAAAAGUUCUCUUAGUUUUACUGGAUUCUCAGGGAGCCCUCUGUGGCCUUUUCCUUUAUUUUGAGUGCUGUUUCCUUUUUA: 0.488
AUGCUUAGAAUAUCAGUAUUUUGGAUGUUGCUGCAUUUUACAAUUUAUUUGGAGUCUUCCUUUAUUUUCCCCCAGAUAUAUGAAAAUAUGCAAUACCUGCUUAUAUCAUG: 0.652
AAUACGCAGUUACAGGGUGUAGUCUGUUUAGAUUCCGUAGUUCGUGGGUAUCAGUUUCGGUAGAGGUGCAGCAUCGUGACACUUUUGCUAACAGGUACCACUUCUGAUCA: 1.1
ACGCUAAGAAGGAAUUACGCGAAUCGGCUCAAAAGUUAUGGUGGCCAAGAAGUGAUACAGGGUGUCAUAUGCAAAUUAGCAAACAGGAAAGGCGGCAAUAUUCAAACCAG: 1.04
CACCACCCUCCUGCUGCCACAGAAGGAAGUUCUCAGUAUACACCACAGUGCACGUGCAUGAUGGAGCUGUGGGACCCUCUCUGGGCUGGGUCUCAUCUGUAAGCUGCUAC: 7.18

Study 3 — method: RNA Bind-n-Seq; molecule type: RNA; sample: in vitro; tested at: 200 nM; notes: whole 134-nt RNA, ends assumed; together with: 150 mM LiCl; relative to: input library; direction: higher = stronger binding; quantity: log2 enrichment; library: 7-deaza-guanosine replaces G
Target: Ras GTPase-activating protein-binding protein 1, full length (G3BP1, Homo sapiens, UniProt Q13283)
Chain of UniProt Q13283 (whole entry, looked up): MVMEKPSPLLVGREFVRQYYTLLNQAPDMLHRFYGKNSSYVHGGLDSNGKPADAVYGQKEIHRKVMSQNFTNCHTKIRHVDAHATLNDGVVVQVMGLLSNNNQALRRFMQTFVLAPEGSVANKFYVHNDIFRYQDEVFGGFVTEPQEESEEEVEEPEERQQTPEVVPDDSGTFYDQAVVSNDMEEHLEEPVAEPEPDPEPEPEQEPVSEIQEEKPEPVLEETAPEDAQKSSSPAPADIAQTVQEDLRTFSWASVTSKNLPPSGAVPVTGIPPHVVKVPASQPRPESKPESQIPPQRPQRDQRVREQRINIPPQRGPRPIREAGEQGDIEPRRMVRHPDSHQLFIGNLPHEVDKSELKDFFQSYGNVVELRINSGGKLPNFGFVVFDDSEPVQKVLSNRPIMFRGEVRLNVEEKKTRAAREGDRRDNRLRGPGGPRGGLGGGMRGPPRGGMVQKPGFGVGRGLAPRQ
All sequences stand within: GGGAGUUCUACAGUCCGACGAUC … UGGAAUUCUCGGGUGUCAAGG
AAGUCCUGUGCUACACAUCGUAUGUACCGAAUCGGGUUUGGGUUUGGGGUUUGGGGAAAGUAUUAUGUUACGCCGUUCGGAUCUGCACUU: -0.656
UGGCCCUGGUGGCAUGCGGGGAGGAAGAGGUGGGCUCAUGGAUCGUGGUGGUCCCGGUGGAAUGUUCAGAGGUGGCCGUGGUGGAGACAG: 0.706
UCAAGUCCUGUGCUACACAUCGUAUGUACCGAAUCGGUUUGGAAAGGUUUUUGGAAAGUAUUAUGUUACGCCGUUCGGAUCUGCACUUCC: -0.493
UGUGCUACACAUCGUAUGUACCGAAUCGUGUGUGUGUGUGUGUGUGUGUGUGUGUGUGUGUGUAAAGUAUUAUGUUACGCCGUUCGGAUC: -0.24
GCAGGAAGUAAAAACAAAUGGAAAUGCUUCGGAUAGUGGCAGGGGUGGGGGUUGCUAAGGAAAGGGUGGGAUGGGAGUCGGUAAAGAGUU: -0.263
UCAAGUCCUGUGCUACACAUCGUAUGUACCGAAUCGGGGUUGGGGUUGGGUUGGAAAGUAUUAUGUUACGCCGUUCGGAUCUGCACUUCC: -0.206
GUCCUGUGCUACACAUCGUAUGUACCGAAUCGGAAAAAAAGGAAAAAGGUUUUUUUGGAAAGUAUUAUGUUACGCCGUUCGGAUCUGCAC: -2.18
CAAGUCCUGUGCUACACAUCGUAUGUACCGAAUCGGGUGGGAAAAAGGGUUUGGGAAAGUAUUAUGUUACGCCGUUCGGAUCUGCACUUC: -1.78

Study 4 — target: CCNE1, cyclin fold, Cln2 fusion (human); method: yeast growth competition, sequencing; sample: yeast; notes: strong parent motif; relative to: not given; direction: higher = stronger binding; quantity: normalised enrichment score
Starting sequence: GMNC docking peptide (human); KNAKRNLSSEFAN
KNAKRNLSSEFHN [A12H]: 0.62
KNAKRNLSSEFVN [A12V]: 0.703
KNAKRNLSSIFAN [E10I]: 0.554
KSAKRNLSSEFAN [N2S]: 1.63
KNGKRNLSSEFAN [A3G]: 0.494
KNAKRNLSSLFAN [E10L]: 0.0867
KNAKRLLSSEFAN [N6L]: -0.263
KNAKRNLASEFAN [S8A]: 1.55
KNAKRNLSWEFAN [S9W]: 1.63
KNAKRNLSSEMAN [F11M]: 0.584
KNKKRNLSSEFAN [A3K]: 0.324
KNAKRNTSSEFAN [L7T]: 0.157
KNAKRNLSFEFAN [S9F]: 2.31
KNAKRNLSSKFAN [E10K]: -0.18
KNAKRELSSEFAN [N6E]: 0.359
KNAIRNLSSEFAN [K4I]: 1.32
KNAKRNLSSEHAN [F11H]: -0.209
KNAKRNLSSHFAN [E10H]: 0.269
KNANRNLSSEFAN [K4N]: -0.00859
KNAKRNLSSEDAN [F11D]: 0.23
KNAKRNLWSEFAN [S8W]: 0.917
KNMKRNLSSEFAN [A3M]: 0.482
KNAKRNLSSEFPN [A12P]: 0.281
KNDKRNLSSEFAN [A3D]: -0.0842
KNAKRNLYSEFAN [S8Y]: 1.44

For quick reference, copied from above (study 1):
TCAACTGTGTGTTTGAGACTGTGCTAG: -0.549 z-score
GACGATATCGGCTTTCGAGACGTGCTA: 0.235 z-score
GACGGTAGCCTTTTCCTGACGTGCTAG: 2.42 z-score
AACATACTCGTTTACATTTTGTGCTAG: 1.4 z-score
GCCAAACACCCACATTCACCGTGCTAG: 0.429 z-score
TTAGGTTTCCCTTTCCTTTAGTGCTAG: 10.1 z-score
